{"data": "Measured values collected from several papers", "note": "Parts stem from different laboratories: compare values within a part only."}
{"data": "Series 1", "target": "Fragile X messenger ribonucleoprotein 1, C-terminal low-complexity region (Fmr1, Mus musculus, UniProt P35922)", "technique": "RNA Bind-n-Seq", "form": "RNA", "sample": "in vitro", "concentration": "200 nM", "setting": "whole 134-nt RNA, ends assumed", "with": "150 mM LiCl", "baseline": "input library", "reading": "higher = stronger binding", "library": "7-deaza-guanosine replaces G", "constant ends, left off below": "GGGAGUUCUACAGUCCGACGAUC … UGGAAUUCUCGGGUGUCAAGG"}
{"Sequence": "CUCAAGUCCUGUGCUACACAUCGUAUGUACCGAAUCGGGGUUGGUUGGUUGGGGAAAGUAUUAUGUUACGCCGUUCGGAUCUGCACUUCC", "log2 enrichment": -0.615}
{"Sequence": "UCAAGUCCUGUGCUACACAUCGUAUGUACCGAAUCGGGGCCGGGCCGGGGCCGGAAAGUAUUAUGUUACGCCGUUCGGAUCUGCACUUCC", "log2 enrichment": 0.49}
{"Sequence": "UGGCCCUGGUGGCAUGCGGGGAGGAAGAGGUGGCCUCAUGGAUCGUGGUGGUCCCGGUGGAAUGUUCAGAGGUGGCCGCGGUGGAGACAG", "log2 enrichment": -0.637}
{"Sequence": "CACAGACAACACGCACCCACACAGACACAGAGGGAAGGGGUUGGGAUGGGGACAGGGUGCACAGCAGGGCGGGAAAGGACCCCAGCCCCU", "log2 enrichment": 2.02}
{"Sequence": "UGGCCCUGGUGGCAUGCGGGGAGGAAGAGGUGGCCUCAUGGAUCGUGGUGGUCCCGGUUGAAUGUUCAGAGGUGGCCGUGGUGGAGACAG", "log2 enrichment": -0.551}
{"Sequence": "UAACUUUAGAGGAGGAUCUGAUGGAUAUGGCAGUGGACGUGGAUUUGGGGAUGGCUAUAAUGGGUAUGGAGGAGGACCUGCAGGUGGCAA", "log2 enrichment": 0.206}
{"Sequence": "GUCCUGUGCUACACAUCGUAUGUACCGAAUCGGGGUUUUUGGGGUUUUUGGGUUUUUGGAAAGUAUUAUGUUACGCCGUUCGGAUCUGCA", "log2 enrichment": -0.87}
{"Sequence": "UGGGAGGUGGAUUUUGUUUAUUUUUUUAGCUCAUUUCCAGGGGUGGGAAUUUUUUUUCAAUAUGUGUCAUGAAUAAAGUUGUUUUUGAAA", "log2 enrichment": 0.188}
{"data": "Series 2", "target": "Interferon regulatory factor 7, full length, phosphomimetic (IRF7, Homo sapiens, UniProt Q92985, residues 1-503, S101K/S471D/S472D/S475D/S476D/S477D/S483D/S484D/S487D)", "technique": "protein-binding microarray", "form": "double-stranded DNA, one strand shown", "sample": "in vitro", "concentration": "250 nM", "setting": "60-bp whole probe", "with": "salmon DNA 0.4 mg/ml", "baseline": "random background probes", "reading": "higher = stronger binding", "constant ends, left off below": "GCCTAGCAC … GTCTTGATTCGCTTGACGCTGCTG", "Residues (chain)": "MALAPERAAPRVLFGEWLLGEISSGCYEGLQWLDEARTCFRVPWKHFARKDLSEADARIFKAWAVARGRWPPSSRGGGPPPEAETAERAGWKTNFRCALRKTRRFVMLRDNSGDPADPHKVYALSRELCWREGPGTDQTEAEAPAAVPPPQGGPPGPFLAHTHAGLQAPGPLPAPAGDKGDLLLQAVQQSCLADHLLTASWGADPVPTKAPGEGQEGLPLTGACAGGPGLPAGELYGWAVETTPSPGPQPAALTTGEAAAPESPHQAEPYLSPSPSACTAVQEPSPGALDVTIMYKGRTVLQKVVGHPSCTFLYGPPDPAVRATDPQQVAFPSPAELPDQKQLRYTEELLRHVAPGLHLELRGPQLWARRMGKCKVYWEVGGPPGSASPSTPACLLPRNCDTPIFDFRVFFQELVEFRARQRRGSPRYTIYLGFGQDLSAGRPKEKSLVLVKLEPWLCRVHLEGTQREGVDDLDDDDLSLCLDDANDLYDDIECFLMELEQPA"}
{"Sequence": "TCACGAGTCCCTATCTCACTGTGCTAG", "log fluorescence [z-score]": -0.096}
{"Sequence": "CATCTCGGGCCGCCGGGCCGGTGCTAG", "log fluorescence [z-score]": -0.239}
{"Sequence": "TTAGGATTCGGACTGGGTTAGTGCTAG", "log fluorescence [z-score]": 0.43}
{"Sequence": "GACGATATCGGGTTTCGAGGCGTGCTA", "log fluorescence [z-score]": 1.35}
{"Sequence": "GACGAACTGGGGACTGTAGACGTGCTA", "log fluorescence [z-score]": -0.604}
{"Sequence": "GACGGTCTCGATCTCGGGACGTGCTAG", "log fluorescence [z-score]": 1.11}
{"Sequence": "TCATTTTTTTTCATCATACTGTGCTAG", "log fluorescence [z-score]": 1}
{"Sequence": "TCAGGTCTCCTTTTCCTTTAGTGCTAG", "log fluorescence [z-score]": 1.95}
{"data": "Series 3", "organism": "SARS-CoV-2", "observed": "cytopathic effect", "cell line": "Vero E6", "concentration": "10 µM"}
{"SMILES": "[O-][S+](c1ccccc1)c1ccc2nnnn2n1 (stereo not drawn)", "inhibition [%]": -39.1}
{"SMILES": "O=c1cc(-c2ccc(O)cc2)oc2cc(O)cc(O)c12", "inhibition [%]": 6.4}
{"SMILES": "O=C(c1ccc(Cl)cc1)c1cc([N+](=O)[O-])ccc1N1CCOCC1", "inhibition [%]": -10.1}
{"SMILES": "C/C=C1/[C@H](O[C@@H]2O[C@H](CO)[C@@H](O)[C@H](O)[C@H]2O)OC=C(C(=O)OC)[C@H]1CC(=O)OCCc1ccc(O)c(O)c1", "inhibition [%]": 0.3}
{"data": "Series 4", "target": "Replicase polyprotein 1ab, nsp13 helicase (rep, Severe acute respiratory syndrome coronavirus 2, UniProt P0DTD1)", "mode": "inhibitor", "concentration": "20 µM"}
{"Structure (SMILES)": "O=C1NC(=O)[C@@H](c2cn3c4c(cccc24)CCC3)[C@@H]1c1c[nH]c2ccccc12", "inhibition [%]": -1.69}
{"Structure (SMILES)": "N#C/C(=C1/SCC(c2ccccc2Cl)S1)n1ccnc1 (stereo not drawn)", "inhibition [%]": 11.4}
{"Structure (SMILES)": "CCOC(=O)[C@@H](C)Oc1ccc(Oc2nc3ccc(Cl)cc3o2)cc1", "inhibition [%]": 2}
{"Structure (SMILES)": "C[C@@H]1COCCN1c1cc(C2(S(C)(=O)=O)CC2)nc(-c2cccc3[nH]ccc23)n1", "inhibition [%]": 6.58}
{"Structure (SMILES)": "C[C@]12CC[C@@H]3c4ccc(OS(=O)(=O)O)cc4CC[C@H]3[C@@H]1CCC2=O", "inhibition [%]": 10.7}
{"Structure (SMILES)": "O=C(NCc1ccc(Oc2ccccc2)cc1)c1nc(-c2cc(Br)c(O)c(Br)c2)no1", "inhibition [%]": 7.27}
{"Structure (SMILES)": "Cc1cccn2c(=O)c(/C=C(\\C#N)c3nc4ccccc4s3)c(Oc3ccc(F)cc3)nc12", "inhibition [%]": 18.9}
{"Structure (SMILES)": "NC(=O)c1cccnc1", "inhibition [%]": -1.22}
{"Structure (SMILES)": "CCn1c(=O)n(C2=C(CO)CN(CC3CCCCCCC3)CC2)c2ccccc21", "inhibition [%]": 6.02}
{"Structure (SMILES)": "C[C@@H](c1nc(-c2ccc(C#N)cc2)cs1)[C@](O)(Cn1cncn1)c1cc(F)ccc1F", "inhibition [%]": 6.19}
{"Structure (SMILES)": "CCCCCCCCCCCCCCCC(=O)OC[C@H](COP(=O)([O-])OCC[N+](C)(C)C)OC(=O)CCCCCCCCCCCCCCC", "inhibition [%]": 9.72}
{"Structure (SMILES)": "C=CCc1cc(OC)c(O)c(C(=O)NCCO)c1", "inhibition [%]": 3.08}
{"Structure (SMILES)": "O=C1Nc2ccccc2C12OCC1(CO2)COC2(OC1)C(=O)Nc1ccccc12 (stereo not drawn)", "inhibition [%]": -4.43}
{"Structure (SMILES)": "C/C(=C\\C(=O)Nc1ccccc1C(=O)O)c1ccc2ccccc2c1", "inhibition [%]": 2.61}
{"Structure (SMILES)": "NCc1cc(O)no1", "inhibition [%]": 5.15}
{"Structure (SMILES)": "C[C@@H](Oc1ccc2[nH]nc(/C=C/c3cnn(CCO)c3)c2c1)c1c(Cl)cncc1Cl", "inhibition [%]": 1.51}
{"Structure (SMILES)": "NNc1nncc2ccccc12", "inhibition [%]": 3.7}
{"Structure (SMILES)": "CN1[C@@H]2CC[C@H]1C[C@@H](OC(=O)[C@H](CO)c1ccccc1)C2", "inhibition [%]": -0.15}
{"Structure (SMILES)": "CCc1cccc(CC)c1NC(=O)N1Cc2[nH]nc(NC(=O)c3ccc(N4CCN(C)CC4)cc3)c2C1", "inhibition [%]": -1.86}
{"Structure (SMILES)": "C=CC(=O)Nc1cccc(Nc2nc(Nc3ccc(OCCOC)cc3)ncc2F)c1", "inhibition [%]": 10.7}
{"Structure (SMILES)": "COC(=O)C1=C(C)NC(C)=C([N+](=O)[O-])[C@H]1c1ccccc1C(F)(F)F", "inhibition [%]": 0.86}
{"Structure (SMILES)": "Nc1nc(Nc2ccc(S(N)(=O)=O)cc2)nn1C(=O)c1c(F)cccc1F", "inhibition [%]": -3.06}
{"data": "Series 5", "cell line": "HEK-293T/ACE2", "concentration": "concentration not given", "time": "16 (unit not given)", "baseline": "vehicle"}
{"Structure (SMILES)": "CC(S)C(=O)NCC(=O)O (stereo not drawn)", "viability": "104%"}
{"Structure (SMILES)": "CO[C@H]1/C=C/O[C@@]2(C)Oc3c(C)c(O)c4c(c3C2=O)C2=NC3(CCN(CC(C)C)CC3)NC2=C(NC(=O)/C(C)=C\\C=C\\[C@H](C)[C@H](O)[C@@H](C)[C@@H](O)[C@@H](C)[C@H](OC(C)=O)[C@@H]1C)C4=O", "viability": "99.2%"}
{"Structure (SMILES)": "CC(=O)O[C@H]1C[C@@H]2CC[C@@H]3[C@H](CC[C@@]4(C)[C@H]3C[C@H]([N+]3(C)CCCCC3)[C@@H]4OC(C)=O)[C@@]2(C)C[C@@H]1[N+]1(C)CCCCC1", "viability": "109%"}
{"note": "A few entries again (series 4):"}
{"Structure (SMILES)": "C/C(=C\\C(=O)Nc1ccccc1C(=O)O)c1ccc2ccccc2c1", "inhibition [%]": 2.61}
{"Structure (SMILES)": "NCc1cc(O)no1", "inhibition [%]": 5.15}
{"Structure (SMILES)": "C[C@@H](Oc1ccc2[nH]nc(/C=C/c3cnn(CCO)c3)c2c1)c1c(Cl)cncc1Cl", "inhibition [%]": 1.51}
